Measured values collected from several papers.
Each line is one published result; not all experiments were run side by side. Values joined by “and” are separate records of one study, mostly repeats; a detail may differ. ± gives the spread as reported.
IL1RL2: Interleukin-1 receptor-like 2 (IL1RL2, Homo sapiens, UniProt Q9HB29)
Chain of UniProt Q9HB29 (whole entry, looked up): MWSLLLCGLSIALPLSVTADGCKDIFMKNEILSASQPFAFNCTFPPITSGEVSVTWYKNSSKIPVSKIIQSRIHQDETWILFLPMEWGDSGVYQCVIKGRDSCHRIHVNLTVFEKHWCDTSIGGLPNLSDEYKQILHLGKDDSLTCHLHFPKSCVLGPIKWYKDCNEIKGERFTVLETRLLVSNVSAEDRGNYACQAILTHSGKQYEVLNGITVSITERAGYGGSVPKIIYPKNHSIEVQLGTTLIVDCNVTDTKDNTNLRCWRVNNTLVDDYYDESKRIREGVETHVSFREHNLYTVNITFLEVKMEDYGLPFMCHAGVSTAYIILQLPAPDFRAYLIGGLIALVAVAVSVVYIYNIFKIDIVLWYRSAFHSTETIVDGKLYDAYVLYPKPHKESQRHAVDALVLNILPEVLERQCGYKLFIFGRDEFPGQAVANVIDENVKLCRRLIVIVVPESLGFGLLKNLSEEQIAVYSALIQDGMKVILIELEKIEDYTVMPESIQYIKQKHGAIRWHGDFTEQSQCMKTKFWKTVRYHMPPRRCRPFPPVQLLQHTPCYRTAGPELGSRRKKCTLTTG
Rhomboid protease AarA: Rhomboid protease AarA (Providencia stuartii, UniProt P46116)
Chain of UniProt P46116 (whole entry, looked up): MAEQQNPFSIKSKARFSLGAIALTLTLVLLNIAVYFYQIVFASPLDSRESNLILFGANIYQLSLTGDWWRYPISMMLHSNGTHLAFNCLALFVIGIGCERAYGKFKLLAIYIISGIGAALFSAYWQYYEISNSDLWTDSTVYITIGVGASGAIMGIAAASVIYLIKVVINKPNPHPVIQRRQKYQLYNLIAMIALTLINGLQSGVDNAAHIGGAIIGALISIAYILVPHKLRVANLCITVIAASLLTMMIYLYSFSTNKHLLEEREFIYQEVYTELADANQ
KDM1A: Lysine-specific histone demethylase 1A (KDM1A, Homo sapiens, UniProt O60341)
Chain of UniProt P28482 (whole entry, looked up): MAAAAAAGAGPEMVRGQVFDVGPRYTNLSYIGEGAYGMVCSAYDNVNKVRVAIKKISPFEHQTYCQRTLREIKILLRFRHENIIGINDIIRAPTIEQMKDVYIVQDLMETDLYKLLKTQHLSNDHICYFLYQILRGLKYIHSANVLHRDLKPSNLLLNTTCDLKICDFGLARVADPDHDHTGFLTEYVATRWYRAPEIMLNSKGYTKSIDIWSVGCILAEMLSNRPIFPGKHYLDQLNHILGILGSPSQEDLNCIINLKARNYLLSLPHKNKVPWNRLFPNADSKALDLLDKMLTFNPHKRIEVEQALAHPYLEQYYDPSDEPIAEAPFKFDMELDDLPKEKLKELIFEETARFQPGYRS
Chain of UniProt Q96S53 (whole entry, looked up): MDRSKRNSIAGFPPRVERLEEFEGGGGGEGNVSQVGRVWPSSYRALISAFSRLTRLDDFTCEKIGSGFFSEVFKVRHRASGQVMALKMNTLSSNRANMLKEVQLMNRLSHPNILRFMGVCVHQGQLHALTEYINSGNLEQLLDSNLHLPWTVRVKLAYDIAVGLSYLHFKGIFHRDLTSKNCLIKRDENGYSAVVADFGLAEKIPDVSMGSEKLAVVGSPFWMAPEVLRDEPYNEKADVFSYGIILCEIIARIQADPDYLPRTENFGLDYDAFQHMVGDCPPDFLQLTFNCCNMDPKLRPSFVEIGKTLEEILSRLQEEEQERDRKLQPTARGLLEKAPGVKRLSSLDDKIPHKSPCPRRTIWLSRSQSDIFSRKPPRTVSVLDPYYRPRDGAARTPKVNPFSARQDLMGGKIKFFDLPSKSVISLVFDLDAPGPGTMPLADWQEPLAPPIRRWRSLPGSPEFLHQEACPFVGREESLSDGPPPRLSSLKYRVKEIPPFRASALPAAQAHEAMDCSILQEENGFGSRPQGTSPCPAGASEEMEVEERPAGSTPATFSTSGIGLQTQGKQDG
Chain of UniProt O75417 (whole entry, looked up): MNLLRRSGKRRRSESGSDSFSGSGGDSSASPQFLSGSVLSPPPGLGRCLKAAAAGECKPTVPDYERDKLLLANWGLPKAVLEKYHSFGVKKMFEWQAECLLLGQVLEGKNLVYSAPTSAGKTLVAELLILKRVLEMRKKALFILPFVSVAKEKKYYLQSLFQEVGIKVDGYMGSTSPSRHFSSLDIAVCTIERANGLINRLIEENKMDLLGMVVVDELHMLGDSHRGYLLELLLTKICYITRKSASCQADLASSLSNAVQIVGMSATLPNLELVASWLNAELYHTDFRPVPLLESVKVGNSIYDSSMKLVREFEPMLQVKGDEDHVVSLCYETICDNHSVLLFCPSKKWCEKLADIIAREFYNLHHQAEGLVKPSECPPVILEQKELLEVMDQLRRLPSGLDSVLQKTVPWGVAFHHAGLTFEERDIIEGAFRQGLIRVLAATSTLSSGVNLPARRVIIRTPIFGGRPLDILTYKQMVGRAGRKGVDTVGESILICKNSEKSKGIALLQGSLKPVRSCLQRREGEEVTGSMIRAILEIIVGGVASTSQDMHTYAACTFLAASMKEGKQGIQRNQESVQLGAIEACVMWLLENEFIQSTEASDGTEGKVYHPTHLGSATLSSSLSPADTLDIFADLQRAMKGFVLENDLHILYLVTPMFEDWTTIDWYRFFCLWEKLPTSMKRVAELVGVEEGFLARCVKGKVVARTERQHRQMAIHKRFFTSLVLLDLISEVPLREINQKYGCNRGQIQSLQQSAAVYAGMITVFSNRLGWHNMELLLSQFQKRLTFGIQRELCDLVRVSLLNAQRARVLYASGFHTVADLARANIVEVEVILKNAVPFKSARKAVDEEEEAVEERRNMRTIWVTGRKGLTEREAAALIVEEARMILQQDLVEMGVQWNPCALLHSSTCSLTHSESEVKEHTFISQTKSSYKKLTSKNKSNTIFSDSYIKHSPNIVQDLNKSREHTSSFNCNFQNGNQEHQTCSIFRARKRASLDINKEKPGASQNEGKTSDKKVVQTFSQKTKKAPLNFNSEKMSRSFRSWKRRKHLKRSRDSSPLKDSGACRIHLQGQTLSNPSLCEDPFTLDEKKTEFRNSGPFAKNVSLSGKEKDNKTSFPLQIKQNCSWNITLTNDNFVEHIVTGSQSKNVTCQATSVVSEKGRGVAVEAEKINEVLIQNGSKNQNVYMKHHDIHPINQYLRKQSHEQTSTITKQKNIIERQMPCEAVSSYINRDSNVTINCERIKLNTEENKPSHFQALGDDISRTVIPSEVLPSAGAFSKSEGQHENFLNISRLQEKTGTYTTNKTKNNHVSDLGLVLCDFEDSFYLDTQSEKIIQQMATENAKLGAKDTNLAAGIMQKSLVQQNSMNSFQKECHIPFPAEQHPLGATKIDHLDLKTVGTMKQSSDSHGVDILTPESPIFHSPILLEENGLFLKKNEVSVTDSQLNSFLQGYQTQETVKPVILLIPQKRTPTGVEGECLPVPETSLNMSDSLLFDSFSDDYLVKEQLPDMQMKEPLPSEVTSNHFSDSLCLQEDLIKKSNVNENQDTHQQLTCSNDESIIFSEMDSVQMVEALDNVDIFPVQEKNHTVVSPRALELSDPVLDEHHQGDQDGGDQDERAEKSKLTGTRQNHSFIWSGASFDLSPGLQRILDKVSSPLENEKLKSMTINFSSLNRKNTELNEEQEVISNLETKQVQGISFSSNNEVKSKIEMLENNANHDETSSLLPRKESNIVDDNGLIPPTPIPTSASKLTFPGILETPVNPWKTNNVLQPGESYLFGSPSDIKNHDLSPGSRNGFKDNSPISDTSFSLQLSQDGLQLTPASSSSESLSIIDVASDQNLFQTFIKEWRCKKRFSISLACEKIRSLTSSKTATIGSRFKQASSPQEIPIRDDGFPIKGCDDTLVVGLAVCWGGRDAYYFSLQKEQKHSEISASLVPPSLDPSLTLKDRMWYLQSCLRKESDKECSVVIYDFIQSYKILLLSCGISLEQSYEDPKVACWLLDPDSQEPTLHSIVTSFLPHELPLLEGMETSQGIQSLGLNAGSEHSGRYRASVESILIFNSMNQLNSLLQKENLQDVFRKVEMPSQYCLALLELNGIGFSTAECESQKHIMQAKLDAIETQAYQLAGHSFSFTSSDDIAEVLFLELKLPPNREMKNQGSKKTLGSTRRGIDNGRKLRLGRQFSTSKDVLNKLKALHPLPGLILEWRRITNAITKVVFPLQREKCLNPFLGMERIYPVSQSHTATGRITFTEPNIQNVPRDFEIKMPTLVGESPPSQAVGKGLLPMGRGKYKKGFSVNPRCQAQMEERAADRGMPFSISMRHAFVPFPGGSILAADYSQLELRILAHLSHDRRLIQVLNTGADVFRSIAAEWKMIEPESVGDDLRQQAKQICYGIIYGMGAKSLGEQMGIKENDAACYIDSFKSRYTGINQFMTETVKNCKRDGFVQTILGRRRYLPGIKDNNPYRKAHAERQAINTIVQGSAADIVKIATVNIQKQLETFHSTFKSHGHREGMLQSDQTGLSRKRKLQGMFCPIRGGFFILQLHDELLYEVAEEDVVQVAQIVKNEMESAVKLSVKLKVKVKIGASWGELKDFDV
Chain of UniProt P12295 (whole entry, looked up): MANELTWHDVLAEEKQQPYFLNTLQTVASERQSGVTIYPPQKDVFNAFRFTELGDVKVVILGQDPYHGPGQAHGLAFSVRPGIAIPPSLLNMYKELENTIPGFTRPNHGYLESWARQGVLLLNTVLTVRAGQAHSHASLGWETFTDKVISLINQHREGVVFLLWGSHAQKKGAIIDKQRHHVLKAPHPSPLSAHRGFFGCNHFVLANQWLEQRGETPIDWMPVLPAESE

SMILES | target | assay | system | setting | how to read | remaining activity
CC(C)[C@@H]1NC(=O)[C@H](Cc2ccccc2)NC(=O)CSC[C@@H](C(N)=O)NC(=O)[C@H](CCC(=O)O)NC(=O)[C@H](CO)NC(=O)[C@H](Cc2c[nH]c3cccc(Cl)c23)NC(=O)[C@H](C2CCCCC2)NC(=O)[C@H](C(C)C)NC(=O)[C@H](Cc2ccc(O)cc2)NC(=O)[C@H](CC(=O)O)NC(=O)[C@H](Cc2c[nH]c3ccccc23)NC(=O)[C@H](Cc2ccc(N)nc2)NC(=O)[C@H](Cc2c[nH]c3ccc(Cl)cc23)NC(=O)[C@H](CCC(=O)O)NC1=O | IL1RL2 | reporter gene (SEAP), inhibitor, HEK-Blue IL-36R reporter | HEK-Blue IL-36R cells | 3.7 µM, 6 h, together with: IL-36γ 100 ng/mL | – | 106%
O=C1CC(c2ccc(Br)cc2)N1S(=O)(=O)c1cccc(Cl)c1 (centres unmarked) | Rhomboid protease AarA | substrate cleavage, gel-based | – | 100 µM | relative to: DMSO | 58%
O=C(Nc1ccccc1)c1cccc([C@@H]2C[C@H]2NC2CCC2)c1 (racemic) | KDM1A | demethylase activity, inhibitor, Amplex Red | – | 0.6667 µM, together with: H3K4me2 peptide | relative to: vehicle | 17.9%
Nc1ncc(-c2cc(-c3cnn(CC(F)(F)F)c3)ncc2F)nc1C(=O)NC1CNCC(F)C1 (centres unmarked) | Dual specificity testis-specific protein kinase 2 (TESK2, Homo sapiens, UniProt Q96S53) | enzyme activity | – | 1 µM | relative to: DMSO control | 108%
COc1ccc(NC(=O)Nc2ccc3c(c2)C(=O)N(C(C)CO)CC(C)C(CN(C)Cc2ccc4c(c2)OCO4)O3)cc1 (centres unmarked) | ROCK-II (rat) | kinase activity | – | 0.03 µM | relative to: control | 94%
O=C1CC(c2ccccc2)N1C(=O)Oc1ccccc1 (centres unmarked) | Rhomboid protease AarA | enzyme activity, inhibitor | – | 100 µM | – | 97%
CCC1(O)CCCN(C(=O)c2ccc(-c3ccc(F)c(C(N)=O)c3)cc2)C1 (centres unmarked) | ung (Escherichia coli, UniProt P12295) | enzyme activity, inhibitor | – | concentration not given, counter-screen | – | 97.8 ± 3.8%
N#Cc1cnc2sc(C(=O)O)cc2c1N1CCc2[nH]nc(C(=O)N[C@@H](CC(=O)NCCOCCN3CCOCC3)c3cccc(Br)c3)c2C1 | IL1RL2 | reporter gene (SEAP), inhibitor, HEK-Blue IL-36R reporter | HEK-Blue IL-36R cells | 3.7 µM, 6 h, together with: IL36A 0.01 ng/mL | – | 39.5%
Cc1nnc(NC(=O)c2cc([C@@H]3C[C@H]3NC3CCC3)ccc2Br)s1 (relative stereo) | KDM1A | demethylase activity, inhibitor, Amplex Red | – | 0.0823 µM, together with: H3K4me2 peptide | relative to: vehicle | 99.7%
COC(=O)[C@@]1(C)C=C(C(=O)Nc2cccc(C(=O)Nc3ccc(Nc4nccc(-c5cccnc5)n4)c(C)c3)c2)C(=O)CC1 | Mitogen-activated protein kinase 1 (MAPK1, Homo sapiens, UniProt P28482) | enzyme activity, inhibitor | – | 400 µM, unit not given | relative to: vehicle | 0.339 and 0.312 and 0.244
Cc1cnc(NC(=O)c2cccc([C@@H]3C[C@H]3NC3CCC3)c2)s1 | KDM1A | demethylase activity, inhibitor, Amplex Red | – | 0.2222 µM, together with: H3K4me2 peptide | relative to: vehicle | 82.3%
COc1ccccc1-c1ccncc1C(=O)Nc1ccc(OCc2ccc(Cl)cc2)nn1 | DNA polymerase theta, helicase domain (POLQ, Homo sapiens, UniProt O75417) | ATPase activity, ADP-Glo | – | 0.48 µM | relative to: 0 µM cpd | 96%
CNC(=O)c1cccc([C@@H]2C[C@H]2NC2CCC2)c1 (racemic) | KDM1A | demethylase activity, inhibitor | – | 50 µM, together with: H3K4me2 peptide | – | 34%
COC(=O)c1ccc2c(c1)nc(NC(=O)c1ccccc1)n2CCCc1ccccc1 | Histone deacetylase 5 (HDAC5, Homo sapiens, UniProt Q9UQL6) | enzyme activity, inhibitor | – | 10 µM | – | 87%

Some of these lines once more:
SMILES | target | assay | system | setting | how to read | remaining activity
Cc1nnc(NC(=O)c2cc([C@@H]3C[C@H]3NC3CCC3)ccc2Br)s1 (relative stereo) | KDM1A | demethylase activity, inhibitor, Amplex Red | – | 0.0823 µM, together with: H3K4me2 peptide | relative to: vehicle | 99.7%
